Measured values gathered from unrelated publications.
Lines come from different studies, so protocols differ.
Method: steady-state kinetics
B1: enzyme (Corynebacterium glutamicum, UniProt Q8NT37); chain MSSGRTVPTRSHGLGKEGVSTTGASQVEFGDPELTARINDAMVQVEELLHTELSSGEDFLVDIVMHLTRAGGKRFRPMFALLASEFGEKPLSENVIKAAVVVEITHLATLYHDDVMDEASMRRGVPSANARWDNSVAILAGDILLAHASGLMSQLGTDTVAHFAETFGELVTGQMRETVGPRDTDPIEHYTNVIREKTGVLIASAGYLGAMHAGAAPEHIDALKNFGAAVGMIFQIVDDIIDIFSETHESGKTPGTDLREGVFTLPVLYALREDTPVGAELRDILTGPLEDDETVNHVLELLSQSGGRQAALDEVYRYMDIANAELDRLPDSTVKEALRNLATFTVKRVG
B2: vldE (Streptomyces hygroscopicus, UniProt Q15JG1); chain MTGSEIFLASKRAAITYDTDPATGEPRAWLAPGGTGNVVAEQAGVLNISWIASADSEDDRRASALNPDGVTMELHSGREILVRLIRHDPAVFRNVQNFMTANLMWAANNYGWDRWTQPSFGSDAREGWADFGRFTRDFADAILKSSAQSADPVYLVHDYQLVGVPALLREQRPDAPILLFVHIPWPSADYWRILPKEIRTGILHGMLPATTIGFFADRWCRNFLESVADLLPDARIDREAMTVEWRGHRTRLRTMPLGYSPLTLDGRNPQLPEGIEEWADGHRLVVHSGRTDPIKNAERAVRAFVLAARGGGLEKTRMLVRMNPNRLYVPANADYVHRVETAVAEANAELGSDTVRIDNDNDVNHTIACFRRADLLIFNSTVDGQNLSTFEAPLVNERDADVILSETCGAAEVLGEYCRSVNPFDLVEQAEAISAALAAGPRQRAEAAARRRDAARPWTLEAWVQAQLDGLAADHAARTATAERFDTAPAVSTRADL
B3: enzyme (Aquifex aeolicus, UniProt O67060); chain MIKVLSPAKINLGLWVLGRLPSGYHEILTLYQEIPFYDEIYIREGVLRVETNIGIPQEENLVYKGLREFERITGIEINYSIFIQKNIPPGAGLGGGSSNLAVVLKKVNELLGSPLSEEELRELVGSISADAPFFLLGKSAIGRGKGEVLEPVETEISGKITLVIPQVSSSTGRVYSSLREEHFVTPEYAEEKIQRIISGEVEEIENVLGDIARELYPEINEVYRFVEYLGFKPFVSGSGSTVYFFGGASEELKKAAKMRGWKVVELEL
B4: GTPBP3 E142K/R136E (Homo sapiens, UniProt Q969Y2); chain TRRSSGAPAPGSGATIFALSSGQGRCGIAVIRTSGPASGHALRILTAPRDLPLARHASLRLLSDPRSGEPLDRALVLWFPGPQSFTGEDCVEFHVHGGPAVVSGVLQALGSVPGLEPAEAGKFTRRAFANGKLNLTEVEGLADLIHAETEAQRRQALRQLDGELGHLCRGWAETLTKALAHVEAYIDFGEDDNLEEGVLEQADIEVRALQVALGAHLRDARRGQRLRSGVHVVVTGPPNAGKSSLVNLLSRKPVSIVSPEPGTTRDVLETPVDLAGFPVLLSDTAGLREGVGPVEQEGVRRARERLEQADLILAMLDASDLASPSSCNFLATVVASVGAQSPSDSSQRLLLVLNKSDLLSPEGPGPGPDLPPHLLLSCLTGEGLDGLLEALRKELAAVCGDPSTDPPLLTRARHQHHLQGCLDALGHYKQSKDLALAAEALRVARGHLTRLTGGGGTEEILDIIFQDFCVGK
B5: enzyme (Halomonas elongata, UniProt E1V931); chain MKIAVPKEIKNHEYRVALTPSGARELVGRGHDVIVQAAAGEGAGFSDADFEAAGARLEADVAKLWDDAELILKVKEPQAEEVARLSAGQTLFTYLHLAAEESLTKGLLDSGATCIAYETITAPEGGLPLLAPMSTVAGRMAVQAGAHSLEKAQGGAGILLPGVPGVAPARVTVIGGGVVGENAARMALGLGAEVTVLDKSIPRLETLDDRYQGRMKTVFSTADALEEAVRESDLIIGAVLVPGAAAPKLITRDMLSDMKPGSVLVDVAIDQGGCFETSKPTTHAEPTYVVDGVVHYCVANMPGAVARTSTQALTNATLPFVVALADKGWQKALADDDHFAAGLNVHDGKLTYRAVAEAFGLEYVEAASLIG
B6: protein Y93A (Thermus thermophilus, UniProt Q5SKR5); chain MSAPKPFVIGIAGGTASGKTTLAQALARTLGERVALLPMDHYYKDLGHLPLEERLRVNYDHPDAFDLALYLEHAQALLRGLPVEMPVYDFRAATRSPRRTPVRPAPVVILEGILVLYPKELRDLMDLKVFVDADADERFIRRLKRDVLERGRSLEGVVAQYLEQVKPMHLHFVEPTKRYADVIVPRGGQNPVALEMLAAKALARLARMGAA
B7: sacB (Priestia megaterium, UniProt D5DC07); chain KGNDSKDFNNSYGISHITRDNMVKIPQQQNSDQFKVPAFDESTIKNIASAKGKNASGNTIDLDVWDSWPLQNADGTVATYHGYQIVFALAGDPKDSNDTSVYLFYKKAGDKSIDSWKNAGRVFKDSDKFVPNDPHLKNQTQEWSGSGTLTKDGKVRLFYTDYSGKQYGKQTLTTAQVNMSQPNDNTLKVDGVEDYKSIFDGDGKIYQTVQQFIDEGGYDTGDNHTLRDPHYIEDNGHKYLVFEANTGTEDGYQGEDSLYNRAYYGGNNPFFQSEKKKLLEGSNKEKASLANGALGIIELNDDYTLKKVMKPLITSNTVTDEIERANIFKKDGKWYLFTDSRGSKMTIDGIGQDDVYMLGYVSNTLTGKYKPLNDTGLVLHMDLDPNDKTFTYSHFAVPQTKGDNVVITSYMTNRGFYEDNHSTFAPSFLVNIDGSKTSVVKDRVLEQGQLTVDED
B8: estF (Pseudomonas fluorescens, UniProt P22862); chain STFVAKDGTQIYFKDWGSGKPVLFSHGWLLDADMWEYQMEYLSSRGYRTIAFDRRGFGRSDQPWTGNDYDTFADDIAQLIEHLDLKEVTLVGFSMGGGDVARYIARHGSARVAGLVLLGAVTPLFGQKPDYPQGVPLDVFARFKTELLKDRAQFISDFNAPFYGINKGQVVSQGVQTQTLQIALLASLKATVDCVTAFAETDFRPDMAKIDVPTLVIHGDGDQIVPFETTGKVAAELIKGAELKVYKDAPHGFAVTHAQQLNEDLLAFLKR
UniProt Q9NP58, sequence (whole entry, looked up): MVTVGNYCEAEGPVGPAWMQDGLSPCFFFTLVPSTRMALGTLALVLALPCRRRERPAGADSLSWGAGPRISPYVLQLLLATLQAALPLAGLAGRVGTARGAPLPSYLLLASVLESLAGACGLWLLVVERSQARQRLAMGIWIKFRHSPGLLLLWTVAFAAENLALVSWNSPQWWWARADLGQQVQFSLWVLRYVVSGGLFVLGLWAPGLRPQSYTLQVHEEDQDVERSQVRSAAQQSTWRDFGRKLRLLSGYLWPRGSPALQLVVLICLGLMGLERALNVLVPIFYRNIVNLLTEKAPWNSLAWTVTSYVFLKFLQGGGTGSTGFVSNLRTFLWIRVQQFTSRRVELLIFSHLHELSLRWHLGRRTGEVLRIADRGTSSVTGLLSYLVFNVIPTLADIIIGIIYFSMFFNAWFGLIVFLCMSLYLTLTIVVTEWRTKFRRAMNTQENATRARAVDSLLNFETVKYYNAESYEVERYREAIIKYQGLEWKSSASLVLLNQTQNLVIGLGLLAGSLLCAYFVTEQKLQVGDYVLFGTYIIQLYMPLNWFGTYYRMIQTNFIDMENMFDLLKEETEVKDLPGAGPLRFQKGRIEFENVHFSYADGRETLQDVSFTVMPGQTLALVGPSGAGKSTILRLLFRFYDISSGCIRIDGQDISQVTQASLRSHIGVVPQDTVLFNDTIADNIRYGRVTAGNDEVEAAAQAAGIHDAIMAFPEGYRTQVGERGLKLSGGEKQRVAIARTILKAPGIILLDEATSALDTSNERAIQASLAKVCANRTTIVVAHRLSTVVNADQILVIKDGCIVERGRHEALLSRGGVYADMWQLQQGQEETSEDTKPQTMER
UniProt P07914, sequence (whole entry, looked up): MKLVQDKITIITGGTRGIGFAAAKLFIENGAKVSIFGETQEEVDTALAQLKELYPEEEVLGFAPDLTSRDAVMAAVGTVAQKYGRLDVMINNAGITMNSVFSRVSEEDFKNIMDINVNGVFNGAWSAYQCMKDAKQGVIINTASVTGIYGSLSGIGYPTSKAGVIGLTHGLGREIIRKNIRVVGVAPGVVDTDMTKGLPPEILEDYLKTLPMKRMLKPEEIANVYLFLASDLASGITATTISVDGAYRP
UniProt P45370, sequence (whole entry, looked up): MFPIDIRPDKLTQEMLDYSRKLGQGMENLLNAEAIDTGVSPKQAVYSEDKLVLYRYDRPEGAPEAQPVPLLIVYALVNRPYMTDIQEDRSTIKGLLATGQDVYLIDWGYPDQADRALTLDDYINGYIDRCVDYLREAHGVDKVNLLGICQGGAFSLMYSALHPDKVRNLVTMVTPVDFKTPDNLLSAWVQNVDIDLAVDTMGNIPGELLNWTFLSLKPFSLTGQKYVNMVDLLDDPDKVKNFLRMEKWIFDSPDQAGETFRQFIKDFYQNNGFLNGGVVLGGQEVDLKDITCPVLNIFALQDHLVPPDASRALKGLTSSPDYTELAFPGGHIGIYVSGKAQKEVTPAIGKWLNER

With `protein (Allochromatium vinosum, UniProt P45370)` the Km was 50 µM (C=CC[C@@H](O)CC(=O)SCCNC(=O)CCNC(=O)[C@H](O)C(C)(C)COP(=O)(O)OP(=O)(O)OC[C@H]1O[C@@H](n2cnc3c(N)ncnc32)[C@H](O)[C@@H]1OP(=O)(O)O; pH 7.8, 30 °C).
For `BaiA1 (Clostridium scindens, UniProt P07914)`, the Km was 3.3 µM (C[C@H](CCC(=O)SCCNC(=O)CCNC(=O)[C@H](O)C(C)(C)COP(=O)(O)OP(=O)(O)OC[C@H]1O[C@@H](n2cnc3c(N)ncnc32)[C@H](O)[C@@H]1OP(=O)(O)O)[C@H]1CC[C@H]2[C@@H]3[C@H](O)C[C@@H]4CC(=O)CC[C@]4(C)[C@H]3CC[C@]12C; pH 8.7, 37 °C, added: NADH).
The Km of `ABCB6 (Homo sapiens, UniProt Q9NP58)` is reported as 4.5 µM (C=CC1=C(C)c2cc3[nH]c(cc4nc(cc5[nH]c(cc1n2)c(C)c5CCC(=O)O)C(CCC(=O)O)=C4C)c(C)c3C=C; pH 8, 37 °C).
`enzyme (Thermococcus kodakarensis, UniProt Q5JID5)` has a Km of 7 µM (C[S+](CC[C@H](N)C(=O)O)C[C@H]1O[C@@H](n2cnc3c(N)ncnc32)[C@H](O)[C@@H]1O; pH 7.5, 50 °C, apparent).
`B1 (enzyme)` gave a Km of 13 µM (C=C(C)CCO[P@@](=O)(O)OP(=O)(O)O; pH 7.6, 37 °C).
`B2 (vldE)` has a Km of 59.7 µM (Nc1nc2c(ncn2[C@@H]2O[C@H](COP(=O)(O)OP(=O)(O)O[C@H]3C=C(CO)[C@@H](O)[C@H](O)[C@H]3O)[C@@H](O)[C@H]2O)c(=O)[nH]1; pH 7.5, apparent, donor made in situ, added: validamine 7-phosphate 1 mM).
For `B3 (enzyme)`, the Km was 121 µM (C[C@](O)(CO)[C@H](O)COP(=O)(O)OP(=O)(O)OC[C@H]1O[C@@H](n2ccc(N)nc2=O)[C@H](O)[C@@H]1O; pH 8.5, 37 °C).
For `B4 (GTPBP3 E142K/R136E)`, the Km was 15.1 µM (Nc1nc2c(ncn2[C@@H]2O[C@H](COP(=O)(O)OP(=O)(O)OP(=O)(O)O)[C@@H](O)[C@H]2O)c(=O)[nH]1; pH 8, 37 °C, KCl 300 mM).
For `B5 (enzyme)`, the Km was 260 µM (NC(=O)c1ccc[n+]([C@@H]2O[C@H](COP(=O)(O)OP(=O)(O)OC[C@H]3O[C@@H](n4cnc5c(N)ncnc54)[C@H](O)[C@@H]3O)[C@@H](O)[C@H]2O)c1; pH 10, 25 °C, cofactor varied).
For `enzyme (Schistosoma mansoni, UniProt Q962Y6)`, the Km was 5000 µM (NC(=O)CCCCC1CCSS1; pH 7.4, 25 °C).
The Km of `B6 (protein Y93A)` is reported as 383 µM (Nc1ccn([C@@H]2O[C@H](CO)[C@@H](O)[C@H]2O)c(=O)n1; pH 7.2, 25 °C, KCl 100 mM, added: ATP 100–200 µM).
With `B7 (sacB)` the Km was 10800 µM (OC[C@H]1O[C@@](CO)(O[C@H]2O[C@H](CO)[C@@H](O)[C@H](O)[C@H]2O)[C@@H](O)[C@@H]1O; pH 6.6).
`B8 (estF)` has a Km of 15000 µM (CCOC(C)=O; pH 6.5, 23 °C, apparent).

Some of these lines once more:
The Km of `B6 (protein Y93A)` is reported as 383 µM (Nc1ccn([C@@H]2O[C@H](CO)[C@@H](O)[C@H]2O)c(=O)n1; pH 7.2, 25 °C, KCl 100 mM, added: ATP 100–200 µM).
With `B7 (sacB)` the Km was 10800 µM (OC[C@H]1O[C@@](CO)(O[C@H]2O[C@H](CO)[C@@H](O)[C@H](O)[C@H]2O)[C@@H](O)[C@@H]1O; pH 6.6).
